Measured values from different studies.
Protocols differ between the studies behind these lines.
Organism: Escherichia coli

| Structure (SMILES) | assay | test system | setting | MIC |
| --- | --- | --- | --- | --- |
| CC(C)C[C@H](NC(=O)[C@@H](NC(=O)[C@H](CCCCN)NC(=O)[C@H](CCCCN)NC(=O)[C@H](CC(C)C)NC(=O)[C@H](Cc1c[nH]c2ccccc12)NC(=O)[C@H](CCCCN)NC(=O)[C@H](Cc1c[nH]c2ccccc12)NC(=O)[C@H](CC(C)C)NC(=O)[C@H](CCCCN)NC(=O)[C@H](CCCCN)NC(=O)[C@@H](N)C(C)C)C(C)C)C(N)=O |  |  | 24 h, 37 °C, Mueller-Hinton broth, NH4Cl 6 µM | 16 µM |
| OB(O)c1cnn(-c2cccc(Cl)c2)c1 | bacterial growth | TEM-3 ESBL clinical isolate | without cefotaxime | > 2050 µg/mL |
| CC[C@H](C)[C@H](NC(=O)[C@@H](CCCNC(=N)N)NC(=O)[C@H](CCCNC(=N)N)NC(=O)[C@@H](NC(=O)[C@H](Cc1c[nH]c2ccccc12)NC(=O)[C@H](CCCNC(=N)N)NC(=O)[C@@H]1CCCN1C(=O)[C@H](CCCNC(=N)N)NC(=O)[C@@H]1CCCN1C(=O)[C@H](CC(C)C)NC(=O)[C@H](Cc1ccc(O)cc1)NC(=O)[C@@H]1CCCN1C(=O)[C@@H]1CCCN1C(=O)[C@H](CCCCN)NC(=O)[C@H](CC(=O)O)NC(=O)[C@@H](N)C(C)C)[C@@H](C)O)C(=O)N[C@@H](Cc1ccc(O)cc1)C(=O)N[C@@H](CC(N)=O)C(=O)N[C@H](CCCNC(=N)N)C(N)=O | broth microdilution | MC4100 | 18 h, 37 °C, 25% MHB2 | 8 µg/mL |
| N=C(N)NCCC[C@H](NC(=O)[C@H](CCCNC(=N)N)NC(=O)[C@H](Cc1ccccc1)NC(=O)[C@H](CO)NC(=O)[C@H](Cc1ccccc1)NC(=O)[C@H](Cc1c[nH]c2ccccc12)NC(=O)[C@H](Cc1ccccc1)NC(=O)[C@H](CO)NC(=O)[C@H](Cc1ccccc1)NC(=O)[C@H](CCCNC(=N)N)NC(=O)[C@@H](N)CCCNC(=N)N)C(N)=O |  | UB1005 | 24 h, 37 °C | 128 µM |
| CC[C@H](C)[C@H](NC(=O)[C@@H](CCCNC(=N)N)NC(=O)[C@H](CCCNC(=N)N)NC(=O)[C@H](Cc1ccc(O)cc1)NC(=O)[C@H](Cc1c[nH]c2ccccc12)NC(=O)[C@H](CCCNC(=N)N)NC(=O)[C@@H]1CCCN1C(=O)[C@H](CCCNC(=N)N)NC(=O)[C@@H]1CCCN1C(=O)[C@H](CC(C)C)NC(=O)[C@H](Cc1ccc(O)cc1)NC(=O)[C@@H]1CCCN1C(=O)[C@@H]1CCCN1C(=O)[C@H](CCCCN)NC(=O)[C@H](CC(=O)O)NC(=O)[C@@H](N)C(C)C)C(=O)N[C@@H](Cc1ccc(O)cc1)C(=O)N[C@@H](CC(N)=O)C(=O)N[C@H](CCCNC(=N)N)C(N)=O | broth microdilution | BW25113 | 18 h, 37 °C, 25% MHB2 | 16 µg/mL |
| CC(C)C[C@H](NC(=O)[C@H](CCCCN)NC(=O)C1CCCC=CCCC(NC(=O)[C@H](CCCCN)NC(=O)[C@@H](N)CC(C)C)C(=O)N[C@@H](CCCCN)C(=O)NC2CCC=CCCCC(NC(=O)[C@H](CCCCN)NC(=O)CNC(=O)[C@H]3CCCN3C(=O)[C@H](CCCCN)NC2=O)C(=O)N[C@@H](CCCCN)C(=O)N1)C(N)=O (stereo partly shown) | broth microdilution | ATCC 25922, Mueller-Hinton broth | 18 h, 37 °C | 64 µM |
| CC[C@H](C)[C@H](NC(=O)[C@@H](CCCNC(=N)N)NC(=O)[C@H](CCCNC(=N)N)NC(=O)[C@@H]1CCCN1C(=O)[C@@H]1CCCN1C(=O)[C@H](CCCNC(=N)N)NC(=O)[C@H](Cc1c[nH]c2ccccc12)NC(=O)[C@H](CCCNC(=N)N)NC(=O)[C@@H]1CCCN1C(=O)[C@H](CC(C)C)NC(=O)[C@H](Cc1ccc(O)cc1)NC(=O)[C@@H]1CCCN1C(=O)[C@@H]1CCCN1C(=O)[C@H](CCCCN)NC(=O)[C@H](CC(=O)O)NC(=O)[C@@H](N)C(C)C)C(=O)N[C@@H](Cc1ccc(O)cc1)C(=O)N[C@@H](CC(N)=O)C(=O)N[C@H](CCCNC(=N)N)C(N)=O | broth microdilution | MC4100 | 18 h, 37 °C, 25% MHB2 | 8 µg/mL |
| CC1(C)C(NC(=O)C(=NOCC(=O)N2CC3CCCC3C2C(=O)O)c2csc(N)n2)C(=O)N1OS(=O)(=O)O (stereo not shown) | agar dilution | CDC 1001728, NDM-1 |  | 8 µg/mL |
| CC[C@H](C)[C@H](NC(=O)[C@@H](CCCNC(=N)N)NC(=O)[C@H](CCCNC(=N)N)NC(=O)[C@@H]1CCCN1C(=O)[C@@H]1CCCN1C(=O)[C@H](CCCNC(=N)N)NC(=O)[C@@H]1CCCN1C(=O)[C@H](CCCNC(=N)N)NC(=O)[C@@H]1CCCN1C(=O)[C@H](CC(C)C)NC(=O)[C@H](Cc1ccc(O)cc1)NC(=O)[C@@H]1CCCN1C(=O)[C@H](Cc1ccc(O)cc1)NC(=O)[C@H](CCCCN)NC(=O)[C@H](CC(=O)O)NC(=O)[C@@H](N)C(C)C)C(=O)N[C@@H](Cc1ccc(O)cc1)C(=O)N[C@@H](CC(N)=O)C(=O)N[C@H](CCCNC(=N)N)C(N)=O | broth microdilution | BW25113 | 18 h, 37 °C, 25% MHB2 | 16 µg/mL |
| CC[C@H](C)[C@H](NC(=O)[C@@H]1CCCN1C(=O)[C@H](CS)NC(=O)[C@H](Cc1ccc(O)cc1)NC(=O)[C@@H]1CCCN1C(=O)[C@H](CC(C)C)NC(=O)[C@H](CCCNC(=N)N)NC(=O)[C@H](CO)NC(=O)[C@H](Cc1ccc(O)cc1)NC(=O)[C@H](Cc1ccccc1)NC(=O)[C@H](CC(N)=O)NC(=O)[C@H](CCCNC(=N)N)NC(=O)[C@H](CS)NC(=O)[C@H](Cc1ccc(O)cc1)NC(=O)[C@H](CO)NC(=O)CNC(=O)[C@H](CO)NC(=O)[C@@H]1CCCN1C(=O)[C@H](CC(C)C)NC(=O)[C@H](Cc1ccc(O)cc1)NC(=O)[C@H](C)NC(=O)[C@@H]1CCCN1C(=O)[C@H](CCCNC(=N)N)NC(=O)CN)C(=O)N[C@@H](CCCNC(=N)N)C(=O)NCC(=O)NCC(=O)N[C@@H](Cc1c[nH]cn1)C(=O)N[C@@H](CS)C(=O)N[C@@H](CCCNC(=N)N)C(=O)O | broth microdilution | K88, Mueller-Hinton broth | 37 °C | 141 µg/mL |
| CC[C@H](C)[C@H](NC(=O)[C@@H](CCCNC(=N)N)NC(=O)[C@H](CCCNC(=N)N)NC(=O)[C@@H]1CCCN1C(=O)[C@@H]1CCCN1C(=O)[C@H](CCCNC(=N)N)NC(=O)[C@@H]1CCCN1C(=O)[C@H](CCCNC(=N)N)NC(=O)[C@@H]1CCCN1C(=O)[C@H](CC(C)C)NC(=O)[C@H](Cc1ccc(O)cc1)NC(=O)[C@H](CCCNC(=N)N)NC(=O)[C@@H]1CCCN1C(=O)[C@H](CCCCN)NC(=O)[C@H](CC(=O)O)NC(=O)[C@@H](N)C(C)C)C(=O)N[C@@H](Cc1ccc(O)cc1)C(=O)N[C@@H](CC(N)=O)C(=O)N[C@H](CCCNC(=N)N)C(N)=O | broth microdilution | ATCC 25922 | 18 h, 37 °C, 25% MHB2 | 16 µg/mL |
| COc1cccc(OC)c1C(=O)N[C@@H]1C(=O)N2[C@@H]1SC(C)(C)[C@@H]2C(=O)O | microbial growth, broth dilution | K88 |  | > 128 µM |
| CC(=O)N[C@H](Cc1ccc(C(F)(F)F)cc1)C(=O)N[C@@H](CCN)C(=O)N[C@H](C(=O)N[C@@H](CCN)C(=O)N[C@H]1CCNC(=O)[C@H]([C@@H](C)O)NC(=O)[C@H](CCN)NC(=O)[C@H](CCN)NC(=O)[C@H](CC(C)C)NC(=O)[C@@H](Cc2ccccc2)NC(=O)[C@H](CCN)NC1=O)[C@@H](C)O | broth microdilution | mcr-1, colistin-resistant |  | 4 to 8 µg/mL |
| CC(C)C[C@@H](NC(=O)[C@H](NC(=O)[C@@H](CCCCN)NC(=O)[C@@H](CCCCN)NC(=O)[C@@H](CC(C)C)NC(=O)[C@@H](Cc1c[nH]c2ccccc12)NC(=O)[C@@H](CCCCN)NC(=O)[C@@H](CC(C)C)NC(=O)[C@@H](CC(C)C)NC(=O)[C@@H](CCCCN)NC(=O)[C@@H](CCCCN)NC(=O)[C@H](N)C(C)C)C(C)C)C(N)=O |  |  | 24 h, 37 °C, Mueller-Hinton broth, MgCl2 1 mM | 8 µM |
| N=C(N)NCCC[C@@H]1NC(=O)[C@H](CCCNC(=N)N)NC(=O)[C@@H](CCCNC(=N)N)NC(=O)[C@@H](CCCNC(=N)N)NC(=O)[C@@H](C(c2ccccc2)c2ccccc2)NC(=O)[C@H](Cc2c[nH]c3ccccc23)NC(=O)[C@@H](C(c2ccccc2)c2ccccc2)NC1=O |  | ATCC BAA-2452, NDM-1 CRE |  | 8 µg/mL |
| CC[C@H](C)[C@H](NC(=O)[C@H](Cc1c[nH]c2ccccc12)NC(=O)c1ccccc1)C(=O)N[C@H](C(=O)N[C@@H](Cc1ccc(O)cc1)C(=O)N[C@@H](CCCCN)C(=O)N[C@@H](Cc1c[nH]c2ccccc12)C(=O)N1CCC[C@@H]1C(=O)N[C@@H](CCCNC(=N)N)C(=O)N[C@@H](CCCCN)C(=O)N[C@@H](CCCCN)C(=O)N[C@H](C(=O)N[C@@H](CCCNC(=N)N)C(=O)N[C@@H](Cc1ccc(O)cc1)C(=O)N[C@@H](Cc1c[nH]c2ccccc12)C(=O)N[C@H](C(=O)NCC(=O)N1CCC[C@H]1C(N)=O)[C@@H](C)O)C(C)C)C(C)C |  | DH5α | 16 h, 37 °C | > 100 µM |
| Cc1ccc2nc(C)c(C(=O)C(=O)NCc3ccccc3)n2c1 | microbial growth, broth dilution |  |  | > 128 µM |
| COc1c(NC(=O)c2ccc(NC(=O)c3ccc(NC(=O)[C@H](CC(N)=O)NC(=O)c4ccc(NC(=O)[C@@H](N)Cc5ccccc5)cc4)cc3)c(OC)c2O)ccc(C(=O)O)c1O |  | empty cosmid vector | 16 h, 37 °C | 4 µg/mL |
| CC[C@H](C)[C@@H]1NC(=O)CNC(=O)[C@H](CCCNC(=N)N)NC(=O)[C@H](Cc2ccc(O)cc2)NC(=O)[C@@H]2CSSC[C@H](NC1=O)C(=O)N[C@@H](Cc1ccc(O)cc1)C(=O)N[C@@H](CCCNC(=N)N)C(=O)N[C@@H](CCCCN)C(=O)N[C@H](C(=O)N[C@@H](CCCNC(=N)N)C(N)=O)CSSC[C@H](NC(=O)[C@H](Cc1c[nH]c3ccccc13)NC(=O)[C@@H](N)CCCNC(=N)N)C(=O)N[C@@H](Cc1ccccc1)C(=O)N[C@@H](CCCNC(=N)N)C(=O)N[C@@H](C(C)C)C(=O)N2 | broth dilution | K12 BW25113 | 18 h, 37 °C | 1.7 µM |

A few entries again:
| Structure (SMILES) | assay | test system | setting | MIC |
| --- | --- | --- | --- | --- |
| Cc1ccc2nc(C)c(C(=O)C(=O)NCc3ccccc3)n2c1 | microbial growth, broth dilution |  |  | > 128 µM |
| COc1c(NC(=O)c2ccc(NC(=O)c3ccc(NC(=O)[C@H](CC(N)=O)NC(=O)c4ccc(NC(=O)[C@@H](N)Cc5ccccc5)cc4)cc3)c(OC)c2O)ccc(C(=O)O)c1O |  | empty cosmid vector | 16 h, 37 °C | 4 µg/mL |
